Results collected from several papers.
Every numbered part comes from another study and shows a few of its results, in no order. Changes are numbered by the printed parent chain.

Block 1
Molecule: FBL (Homo sapiens, UniProt P22087)
Method: cross-linking MS
Setting: hits only
For NOP58 (Homo sapiens, UniProt Q9Y2X3): interaction screen read “cross-linked”.
The interaction screen was “cross-linked” (NOL7 (Homo sapiens, UniProt Q9UMY1)).
The interaction screen was “cross-linked” (UTP11 (Homo sapiens, UniProt Q9Y3A2)).

Block 2
Target: Ras GTPase-activating protein-binding protein 1, RRM domain (G3BP1, Homo sapiens, UniProt Q13283)
Sequence of UniProt Q13283 (whole entry, looked up): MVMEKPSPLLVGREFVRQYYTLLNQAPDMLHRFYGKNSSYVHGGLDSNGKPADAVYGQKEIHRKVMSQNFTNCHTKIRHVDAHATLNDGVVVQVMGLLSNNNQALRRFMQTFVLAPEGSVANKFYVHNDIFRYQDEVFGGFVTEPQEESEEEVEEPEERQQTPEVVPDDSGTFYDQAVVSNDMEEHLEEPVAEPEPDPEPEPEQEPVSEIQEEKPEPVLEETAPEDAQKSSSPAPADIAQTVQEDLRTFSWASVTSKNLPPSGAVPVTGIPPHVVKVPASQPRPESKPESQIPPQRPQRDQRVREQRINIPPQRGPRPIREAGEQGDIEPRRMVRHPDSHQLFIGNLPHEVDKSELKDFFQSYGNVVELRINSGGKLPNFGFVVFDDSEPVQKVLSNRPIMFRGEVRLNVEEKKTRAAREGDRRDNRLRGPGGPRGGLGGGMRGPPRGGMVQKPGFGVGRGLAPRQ
Method: RNA Bind-n-Seq
Molecule type: RNA
Medium: in vitro
Concentration: 1 µM
Setting: whole 134-nt RNA, ends assumed
Added: 150 mM KCl
Baseline: input library
Direction: higher = stronger binding
Shared flanks, not repeated: GGGAGUUCUACAGUCCGACGAUC … UGGAAUUCUCGGGUGUCAAGG
The log2 enrichment of `UGGCCCUGGUGGCAUGCGGGGAGGAAGAGGUGGCCUCAUGGAUCGUGGUGGUACCGGUGGAAUGUUCAGAGGUGGCCGUGGUGGAGACAG` is reported as -0.0365.
For `UCCUGUGCUACACAUCGUAUGUACCGAAUCGGGGAAAAAGGGGAAAAAGGGGAAAAAGGGAAAGUAUUAUGUUACGCCGUUCGGAUCUGC`, the log2 enrichment was 0.0323.
For `AGUCCUGUGCUACACAUCGUAUGUACCGAAUCGGGGAAAAGGGGAAAAGGGGAAAAGGAAAGUAUUAUGUUACGCCGUUCGGAUCUGCAC`, the log2 enrichment was 0.136.
With `UUAAGAAUAUUUAGAUAUUUGUAAAAGAAUUUGAAUGAUUUAUUUAAUAUAACGUUUAUUUUAUUAGCUCUAUUCCAAUUGAUUACAACC` the log2 enrichment was -0.21.
With `UCAAGUCCUGUGCUACACAUCGUAUGUACCGAAUCGGGUUUGGGUUUGGUUUGGAAAGUAUUAUGUUACGCCGUUCGGAUCUGCACUUCC` the log2 enrichment was -0.267.
`ACCAUGCAGGUGGGCAUCUUUGGGAAGUGGGGCAAGGGGGAGAUAGGGAGGGGGGUAACACUUUGGGAACAGGUGGUCCCAGGUCGUUUC` has a log2 enrichment of 1.1.
`UCCUGUGCUACACAUCGUAUGUACCGAAUCGGGGAGGGGAAAAAGGGGAAAAAAAGGGGAAAGUAUUAUGUUACGCCGUUCGGAUCUGCA` gave a log2 enrichment of 0.591.
For `UCCUGUGCUACACAUCGUAUGUACCGAAUCAAAUUUUUAAAUUUUUAAAUUUUUUUAAAAAAGUAUUAUGUUACGCCGUUCGGAUCUGCA`, the log2 enrichment was -0.00523.

Block 3
Target: CCNE2, cyclin fold, Cln2 fusion (human)
Method: yeast growth competition, sequencing
Medium: yeast
Setting: weak parent motif
Baseline: not given
Direction: higher = stronger binding
Starting sequence: MASTL docking peptide (human); PMIAKNLMCELDE; partner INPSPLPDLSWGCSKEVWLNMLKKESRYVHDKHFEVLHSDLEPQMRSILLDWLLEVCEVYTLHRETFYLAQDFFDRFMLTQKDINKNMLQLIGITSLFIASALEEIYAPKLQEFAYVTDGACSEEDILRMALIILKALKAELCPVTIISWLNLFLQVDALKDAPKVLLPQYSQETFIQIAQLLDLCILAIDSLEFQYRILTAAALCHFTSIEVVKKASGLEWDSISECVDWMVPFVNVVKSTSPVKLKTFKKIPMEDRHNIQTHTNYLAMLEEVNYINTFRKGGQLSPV
Under “normalised enrichment score”, `PMIAKNLVCELDE [M8V]` is recorded as 0.247.
For `PRIAKNLMCELDE [M2R]`, “normalised enrichment score” read -0.083.
`PMIQKNLMCELDE [A4Q]`: “normalised enrichment score” -0.353.
`PMIAKNLMCEVDE [L11V]` — result for “normalised enrichment score”: -0.146.
Under “normalised enrichment score”, `PMIAYNLMCELDE [K5Y]` is recorded as -0.398.
`PAIAKNLMCELDE [M2A]` — result for “normalised enrichment score”: -0.228.
For `PMWAKNLMCELDE [I3W]`, “normalised enrichment score” read -0.162.
For `PMIAANLMCELDE [K5A]`, “normalised enrichment score” read 0.0397.

Mixed results
`O=C1C(CC[S+]([O-])c2ccccc2)C(=O)N(c2ccccc2)N1c1ccccc1` (centres unmarked) gave a viability of 101% (Huh-7; 10 µM, 24 h).

Excerpt of the above (block 3):
Under “normalised enrichment score”, `PMIAKNLVCELDE [M8V]` is recorded as 0.247.
For `PRIAKNLMCELDE [M2R]`, “normalised enrichment score” read -0.083.
